Published values of several laboratories.
A part holds a random share of what one study measured.

Series 1 — method: competition protein-binding microarray; molecule type: double-stranded DNA, one strand shown; sample: in vitro; tested at: 2 µM; added: Cbf1 competitor, 0.05 µM; direction: higher = stronger binding; quantity: fluorescence intensity; all sequences stand within: … GTCTTGATTCGCTTGACGCTGCTG
Target: Phosphate system positive regulatory protein PHO4, full length, GST-tagged (PHO4, Saccharomyces cerevisiae, UniProt P07270, residues 1-312)
Notes: whole 60-bp probe, lowest competitor level
Residues (chain): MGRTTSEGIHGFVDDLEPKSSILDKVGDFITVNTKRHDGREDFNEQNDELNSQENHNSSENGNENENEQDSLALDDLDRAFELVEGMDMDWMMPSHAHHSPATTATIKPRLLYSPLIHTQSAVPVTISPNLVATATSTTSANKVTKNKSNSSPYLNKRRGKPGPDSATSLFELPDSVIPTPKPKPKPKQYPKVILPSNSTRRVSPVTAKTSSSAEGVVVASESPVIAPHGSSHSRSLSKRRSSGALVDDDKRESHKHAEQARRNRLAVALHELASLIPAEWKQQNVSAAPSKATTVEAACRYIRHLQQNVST
AAATTACTAAGTTGGGTTGTGGGTGACGCCGTATGA: 4560 a.u.
GATCAAACTGAGGATGACCTGGACATCTTGGTCGCT: 2720 a.u.
CTTTCCCGATCTTTTCACGTGGGATTAGCACATTTG: 15100 a.u.
GCACTTGCTGCCTGTCACCTGGTACAAAGCCATATG: 4290 a.u.
AAACAAACTACATCGCACGTGACGGATAACTATACG: 17500 a.u.

Series 2 — method: protein binding microarray; molecule type: double-stranded DNA, one strand shown; sample: in vitro; tested at: not given; reference: not given; direction: higher = stronger binding; quantity: E-score
Target: Histone acetyltransferase KAT6A, both winged helices, GST fusion (KAT6A, Homo sapiens, UniProt Q92794, residues 1-181)
Notes: 8-mer, flanks averaged, mean of 2 arrays, mostly near background
Construct (chain): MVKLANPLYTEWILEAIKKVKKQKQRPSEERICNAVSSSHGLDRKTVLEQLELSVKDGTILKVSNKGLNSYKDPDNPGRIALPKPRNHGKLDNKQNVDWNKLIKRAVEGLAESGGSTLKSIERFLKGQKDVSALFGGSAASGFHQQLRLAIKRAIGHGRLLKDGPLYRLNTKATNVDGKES
CCGGCCAG: 0.243
CCTAAGAA: -0.106
CAAGTGTC: -0.0697
AGTAAGTA: -0.0954
GGACTGGA: -0.125
ACTCCTCG: -0.153

Series 3 — method: RNA Bind-n-Seq; molecule type: RNA; sample: in vitro; tested at: 365 nM; reference: no-protein control; direction: higher = stronger binding; quantity: RBNS enrichment (R)
Target: RNA binding protein fox-1 homolog 2, RRM domain, GST-SBP tag (RBFOX2, Homo sapiens, UniProt O43251-10, residues 100-194)
Notes: natural RNA segment, single round, ends assumed
GGGAGUUCUACAGUCCGACGAUCCCGCCACAACCCUGCGUGUGGACCCUGGCAGGGGGGGGUGCCAGGCCCCUGGAAAGCAGGGGUUACCGUUACGAGGCUGUGGUCCGGGGCAAGCCAAGUACGAAGCAGCAUGGAAUUCUCGGGUGCCAA: 2.44
GGGAGUUCUACAGUCCGACGAUCUUGGCCAUCUGAGUAGAAAUAGGAGUAGCUUUAAGAAAAAGGCAGAUUCUCUAAAGGAAUUUGGAGAUAUGACAUCACUCCUGAGCAGAGCAUAUUAGAAGAAAGCAAACUGGAAUUCUCGGGUGCCAA: 0.431
GGGAGUUCUACAGUCCGACGAUCCCAAAAUCUUUGUAGUGUGCAGAGCGGUGGUUUGAGACUAAAUACAGGCUUAGAACUUGCAGAGUGUGUAUUCUUGGAUGGCUGAUGCAUCGACUUGCAUUCCCACUUAAUGGAAUUCUCGGGUGCCAA: 1.13

Further values, each from its own experiment
PhoQ, residues 284 288 289 292 302 303 AANNSF — fold induction (PhoP, residues 12 14 15 18 19 NIMAP (Escherichia coli, UniProt P23836); Sort-seq, measured: YFP reporter; E. coli; PhoQ-PhoP variant library, added: 10 µM Mg2+; reference: high Mg2+ state, higher = stronger signaling): 0.884

Some of these lines once more (series 1):
GATCAAACTGAGGATGACCTGGACATCTTGGTCGCT: 2720 a.u.
CTTTCCCGATCTTTTCACGTGGGATTAGCACATTTG: 15100 a.u.
